# Assay results collected from several papers.
# Each line is one published result; not all experiments were run side by side. ± marks the error that the study gave.
Structure (SMILES),assay,system,conditions,renal clearance [mL/min]
CN(C)C(=O)c1cc2cnc(Nc3ccc(N4CCNCC4)cn3)nc2n1C1CCCC1,,"human, moderate renal impairment, plasma and urine","oral, 400 mg, geometric mean",43
CCN1C(=O)N(c2c(F)c(OC)cc(OC)c2F)Cc2cnc3[nH]c(CN4CCOCC4)cc3c21,,human,,3.47
C[C@@H](Oc1ccc(S(C)(=O)=O)cc1C(=O)N1C[C@@H]2C[C@]2(c2cc(C(F)(F)F)on2)C1)C(F)(F)F,,"young healthy humans, plasma and urine","oral, 10 mg, 0 to 24 h, single dose",6.25
O=C(c1nc2n(n1)[C@H](c1ccccc1)C[C@@H]2F)C1CC1,,human,150 mg single dose,0.096 to 0.242
Cl.O=C(NC1CCOCC1)c1csc([C@@H]2C[C@H]2NCC2CC2)c1,,"human, fed, urine","oral, 30 mg single dose",158
Cl.[2H]C([2H])([2H])CC(=O)c1cnc(NC(=O)C2CC2)cc1Nc1cccc(-c2ncn(C([2H])([2H])[2H])n2)c1OC,,human,"oral, 20 mg",405
COc1ccc(-n2nc(C(N)=O)c3c2C(=O)N(c2ccc(N4CCCCC4=O)cc2)CC3)cc1,population PK,"human, plasma",oral,24.3 ± 1.38
NC[C@@]1(CC(=O)O)[C@@H]2CC[C@H]3C[C@@H]2[C@@H]1C3,,"human, normal renal function, urine","oral, 20 mg single dose",132 ± 23.3
Cc1cc(C)c(CNC(=O)c2cc(Cl)c3c(c2C)O[C@@](C)([C@H]2CC[C@H](N(C)C)CC2)O3)c(=O)[nH]1,,"human, urine and plasma","oral, 200 mg",31.3
COc1ccc(F)cc1C(=O)NCc1ccc(-c2nn([C@@H](C)C(F)(F)F)c(N)c2C(N)=O)cc1,,"human male, plasma and urine","intravenous, 22 µg",2
C[C@@H](Cn1ccc(-c2ccc(C#N)c(Cl)c2)n1)NC(=O)c1cc([C@@H](C)O)[nH]n1,refers to: darolutamide,"human, fasted","oral, 300 mg darolutamide tablet, geometric mean",8.49
Cc1cc(-c2nccc3c2ccn3CC(=O)Nc2ccc(-c3cnccn3)cn2)ccn1,,"human, plasma and urine","oral, 20 mg single dose, geometric mean",6.82
CC(C)n1c(C2CCNCC2)nc2c([N+](=O)[O-])c(Br)c(Br)cc21,,"human, urine","oral, 150 mg single dose",9.5
Cc1ccc(C(=O)NC2CC2)cc1-n1ncc(C(=O)c2cccc(C#N)c2)c1N,,human,mass balance study,7.47
CN[C@@H]1COc2c(S(=O)(=O)NC(=O)Nc3c4c(cc5c3CCC5)CCC4)cnn2C1,,"human, urine","oral, 1800 mg, 0-48 h",5.8
C[C@@H](N)c1cc(Cl)ccc1Cn1c(=S)[nH]c(=O)c2[nH]ccc21,,"human, both sexes, severe renal impairment, urine and plasma","oral, 2.5 mg single dose, 0-24 h urine collection, geometric mean",38.3
CC(=O)N(C)[C@H]1CCN(C(=O)c2cnc3c(c2)C[C@](C)(c2ccc(F)cc2)N3)C1,,"healthy male human, urine","oral, 30 mg once daily, 0-48 h steady state, geometric mean",183
Cn1cc(-c2cn3nccc3c(-c3cnn([C@]4(CC#N)C[C@@H](C#N)C4)c3)n2)cn1,,"human, urine","100 mg once daily, day 10, multiple dose, geometric mean",10

# Some of these lines once more:
Structure (SMILES),assay,system,conditions,renal clearance [mL/min]
CN[C@@H]1COc2c(S(=O)(=O)NC(=O)Nc3c4c(cc5c3CCC5)CCC4)cnn2C1,,"human, urine","oral, 1800 mg, 0-48 h",5.8
C[C@@H](N)c1cc(Cl)ccc1Cn1c(=S)[nH]c(=O)c2[nH]ccc21,,"human, both sexes, severe renal impairment, urine and plasma","oral, 2.5 mg single dose, 0-24 h urine collection, geometric mean",38.3
